Measurements from different studies.
Compare with care: the assays were run in different laboratories. “And” joins repeats or separate records; there may be more than shown. ± marks the error that the study gave.
rep main protease: Replicase polyprotein 1ab, main protease (rep, Severe acute respiratory syndrome coronavirus 2, UniProt P0DTD1)
Spike glycoprotein: Spike glycoprotein (Severe acute respiratory syndrome coronavirus 2, UniProt P0DTC2)

Substance	tested on	test	system	conditions	scale	endpoint	result
CC[C@H](C)[C@H](NC(=O)[C@H](CC(C)C)NC(=O)[C@H](Cc1c[nH]c2ccccc12)NC(=O)[C@H](CCC(N)=O)NC(=O)[C@@H](NC(=O)[C@H](Cc1ccccc1)NC(=O)[C@H](C)NC(=O)[C@H](CCCCNC(=O)COCCOCCNC(=O)COCCOCCNC(=O)CC[C@H](NC(=O)CCCCCCCCCCCCCCCCCCC(=O)O)C(=O)O)NC(=O)[C@H](CCC(N)=O)NC(=O)[C@H](C)NC(=O)[C@@H](NC(=O)[C@H](CCCCN)NC(=O)[C@H](CC(=O)O)NC(=O)[C@H](CC(C)C)NC(=O)C(C)(C)NC(=O)[C@@H](NC(=O)[C@H](CO)NC(=O)[C@H](Cc1ccc(O)cc1)NC(=O)[C@H](CC(=O)O)NC(=O)[C@H](CO)NC(=O)[C@@H](NC(=O)[C@H](Cc1ccccc1)NC(=O)[C@@H](NC(=O)CNC(=O)[C@H](CCC(=O)O)NC(=O)C(C)(C)NC(=O)[C@@H](N)Cc1ccc(O)cc1)[C@@H](C)O)[C@@H](C)O)[C@@H](C)CC)[C@@H](C)CC)C(C)C)C(=O)N[C@@H](C)C(=O)NCC(=O)NCC(=O)N1CCC[C@H]1C(=O)N[C@@H](CO)C(=O)N[C@@H](CO)C(=O)NCC(=O)N[C@@H](C)C(=O)N1CCC[C@H]1C(=O)N1CCC[C@H]1C(=O)N1CCC[C@H]1C(=O)N[C@@H](CO)C(N)=O	–	measured: Rhinorrhoea	healthy subjects	5/5/8/10 mg titrated, multiple ascending dose	–	subjects with adverse events	28.6%
Nc1ncnc2c([C@@H]3N[C@H](CO)[C@@H](O)[C@H]3O)c[nH]c12	Nipah henipavirus	viral replication	HeLa, Malaysia	25 µM	–	inhibition	10.7%
COc1cc(NS(=O)(=O)c2ccc(NC(=O)c3ccc4ccccc4c3)cc2)nc(OC)n1	Replicase polyprotein 1ab, nsp14 N7-methyltransferase (rep, Severe acute respiratory syndrome coronavirus 2, UniProt P0DTD1)	N7-methyltransferase activity, inhibitor, Py-FLINT	–	–	–	Hill slope	1.02 ± 0.14
O=C(NC[C@@H]1Cc2ccccc2CN1C(=O)[C@@H]1CCCS(=O)(=O)C1)c1cn[nH]c(=O)c1	rep main protease	enzyme activity, inhibitor	–	5 µM, run 1	–	inhibition	13.1%
Theaflavin 3,3'-digallate	rep main protease	enzyme activity, Gaussia luciferase reporter	SARS-CoV-2	20 µM	–	inhibition	-3.13%
Cc1ccc(C(=O)N2CC3(CCC3)C[C@H]2CNC(=O)c2cncc3[nH]cnc23)cc1O	rep main protease	enzyme activity, inhibitor	–	5 µM, mean of runs	–	inhibition	16.6%
CCc1c(C(=O)C(N)=O)c2c(OCC(=O)O)cccc2n1Cc1ccccc1	Daboia russelii venom phospholipase A2	enzyme activity, inhibitor	MH population	0.01 µM, added: NOB substrate	reference: venom alone	remaining activity	92.3% and 92.5% and 94%
Cl.O=C(O)/C=C/c1ccc(Cn2ccnc2)cc1	rep main protease	reporter gene (mKate2), inhibitor	–	20 µM	–	inhibition	-0.698%
Cn1cnc(Cn2c(=O)[nH]/c(=N\c3cc4cn(C)nc4cc3Cl)n(Cc3cc(F)c(F)cc3F)c2=O)n1	–	–	human, normal renal function	oral, 375 mg, hypertriglyceridaemia TEAE, Severe severity	–	patients with adverse event	0%
Cc1c[nH]c2ncc(C(=O)N[C@H]3[C@H](CNc4cc(=O)n5ccccc5n4)CCC34CCC4)cc12	rep main protease	enzyme activity, inhibitor	–	5 µM, run 2	–	inhibition	18.7%
COC(=O)N[C@H](C(=O)NNC[C@H](O)[C@H](Cc1ccccc1)NC(=O)[C@@H](NC(=O)OC)C(C)(C)C)C(C)(C)C	rep main protease	viral replication, mKate2 reporter	SARS-CoV-2	20 µM	–	inhibition	-0.773%
O=C1NC(=O)[C@@H](CC(=O)N2C[C@H](CO)C3(C2)CN(C(=O)c2cc4ccc(O)cc4[nH]2)C3)N1	rep main protease	enzyme activity, inhibitor	–	5 µM, run 1	–	inhibition	14.7%
COc1ccc(C[C@@H]2c3cc(Oc4cc(C[C@@H]5c6cc(O)c(OC)cc6CCN5C)ccc4O)c(OC)cc3CCN2C)cc1	Spike glycoprotein	binding, BLI	–	–	–	koff	0.0311 s⁻¹
Cc1ccc(Nc2ccnc(N3CCCC3C(=O)NCCCc3ccccc3)n2)cc1 (stereo not drawn)	SARS-CoV-2	cytopathic effect, cell-based CPE	USA_WA1/2020	round 1, 5-point dilution	–	AC50	12.6 µM
CC(C)(C)NC(=O)N[C@H](C(=O)N1C[C@H]2[C@@H]([C@H]1C(=O)NC(CC1CCC1)C(=O)C(N)=O)C2(C)C)C(C)(C)C (stereo partly drawn)	Vero E6	–	–	48 h	–	CC50	> 200 µM
CCOP(=S)(OCC)Oc1nc(Cl)c(Cl)cc1Cl	rat CYP2D	bufuralol 1'-hydroxylation, non-competitive inhibitor	rat Sprague-Dawley, liver microsomes	10 min, pH 7.4, added: bufuralol 4 to 134 µM	–	Ki	1450 ± 362 µM
C=C1C(=O)C23C(O)C1CCC2C12COC3(O)C(O)C1C(C)(C)CCC2OC(C)=O (stereo not drawn)	rep main protease	viral replication, mKate2 reporter	SARS-CoV-2	20 µM	–	inhibition	-1.59%
CC(C)(O)[C@H]1CC[C@@](C)([C@H]2[C@@H](O)C[C@@]3(C)[C@@H]4C[C@H](O[C@@H]5O[C@H](CO)[C@@H](O)[C@H](O)[C@H]5O)[C@H]5C(C)(C)[C@@H](O[C@@H]6OC[C@@H](O)[C@H](O)[C@H]6O)CC[C@@]56C[C@@]46CC[C@]23C)O1	Spike glycoprotein	binding, biolayer interferometry	–	–	–	koff	0.385 s⁻¹
COc1ccc(Nc2cc(C(=O)NCCCN3CCN(c4ccccc4F)CC3)c3ccccc3n2)c(OC)c1	SARS-CoV-2	cytopathic effect, cell-based CPE	USA_WA1/2020	round 2, 5-point dilution	–	AC50	5.62 µM
O=c1cc(-c2ccccc2)c2ccc(O)c(O)c2o1	Spike glycoprotein	binding, biolayer interferometry	–	–	–	kon	1390 M⁻¹ s⁻¹
Cc1nc(N)c2cnn(C3CCN(Cc4ccc(S(=O)(=O)F)cc4)CC3)c2n1	Calmodulin-sensitive adenylate cyclase (cya, Bacillus anthracis, UniProt P40136)	–	–	–	–	kinact	0.000867 s⁻¹

Excerpt of the above:
Substance	tested on	test	system	conditions	scale	endpoint	result
CC(C)(C)NC(=O)N[C@H](C(=O)N1C[C@H]2[C@@H]([C@H]1C(=O)NC(CC1CCC1)C(=O)C(N)=O)C2(C)C)C(C)(C)C (stereo partly drawn)	Vero E6	–	–	48 h	–	CC50	> 200 µM
CC(C)(O)[C@H]1CC[C@@](C)([C@H]2[C@@H](O)C[C@@]3(C)[C@@H]4C[C@H](O[C@@H]5O[C@H](CO)[C@@H](O)[C@H](O)[C@H]5O)[C@H]5C(C)(C)[C@@H](O[C@@H]6OC[C@@H](O)[C@H](O)[C@H]6O)CC[C@@]56C[C@@]46CC[C@]23C)O1	Spike glycoprotein	binding, biolayer interferometry	–	–	–	koff	0.385 s⁻¹
CCc1c(C(=O)C(N)=O)c2c(OCC(=O)O)cccc2n1Cc1ccccc1	Daboia russelii venom phospholipase A2	enzyme activity, inhibitor	MH population	0.01 µM, added: NOB substrate	reference: venom alone	remaining activity	92.3% and 92.5% and 94%
